Published values pooled from the literature.
Each line is one published result; not all experiments were run side by side. Values joined by “and” are separate records of one study, mostly repeats; a detail may differ. ± marks the error that the study gave.

Compound | test | system | conditions | Cmax
O=C(Nc1ccc(OC(F)(F)Cl)cc1)c1cnc(N2CC[C@@H](O)C2)c(-c2ccn[nH]2)c1 |  | Sprague-Dawley rat, male, plasma | oral, 8 mg/kg | 390 ± 108 ng/mL
CC(=O)CC(c1ccccc1)c1c(O)c2ccccc2oc1=O (centres unmarked) |  | Sprague-Dawley rat, male, plasma | oral, 0.3 mg/kg/day, 1 week, without PNS | 1430 ± 78.5 ng/mL
Cc1cccc(CNC(=O)c2cn(CCNC(=O)c3ccccc3S)c3cc4c(cc3c2=O)OC(F)(F)O4)n1 |  | Sprague-Dawley rat, male, whole blood | intramuscular, 10 mg/kg of parent drug | 356 ± 167 ng/mL
CCc1cc(C(=O)NC)c2nccc(N3CCc4c(cc(Cn5ccnc5)cc4-c4cn(C)nc4C(F)(F)F)C3=O)c2c1 |  | Sprague Dawley rat, male, bile duct-cannulated, plasma | oral, 50 mg/kg | 19200 ng/mL
Oc1ccc(/C=C/c2cc(O)cc(O)c2)cc1 |  | male Wistar rats, plasma | oral, 10 mg/kg | 126 ± 7.5 ng/mL
CSc1ccccc1C(=O)NCCn1cc(C(=O)NCc2cccc(C)n2)c(=O)c2cc3c(cc21)OC(F)(F)O3 |  | Sprague-Dawley rat, male, plasma | intravenous, 5 mg/kg of parent compound | 527 ± 79.1 ng/mL
CCOCC(=O)N1CCC[C@H](C(=O)NCc2nc(-c3ccc(C)nc3)cs2)C1 |  | Sprague-Dawley rat, male, plasma | oral, 3 mg/kg | 17 µM
C=CC(=O)N1CCC([C@@H]2CCNc3c(C(N)=O)c(-c4ccc(Oc5ccccc5)cc4)nn32)CC1 |  | Sprague-Dawley rats, plasma | oral, 16 mg/kg, with: posaconazole 40 mg/kg | 597 ± 195 ng/mL
CN1CCC[C@H](CN2c3ccccc3Sc3ccccc32)C1.Cl |  | female Wistar rat, heart | oral, 16 mg/kg | 2800 ng/g
Cc1cc(-c2ccc3cc[nH]c(=O)c3c2)ccc1O[C@H]1O[C@H](CO)[C@@H](O)[C@H](O)[C@@H]1O |  | male Sprague-Dawley rat, plasma | intravenous, 3 mg/kg, group mean | 337 ng/mL
OCC1=C[C@@H](O)[C@@H]2C=CO[C@@H](O[C@@H]3O[C@H](CO)[C@@H](O)[C@H](O)[C@H]3O)[C@H]12 |  | rat, plasma | oral, 500 mg/kg Eu extract, dosed as Eu extract | 106 ± 73.4 ng/mL
CNC(=O)c1cccc(-c2ccc([C@@H](O)[C@H]3O[C@H](CO)[C@@H](O)[C@H](O)[C@@H]3O)c(C)c2)c1 |  | male Sprague-Dawley rat, plasma | intravenous, 3 mg/kg, group mean | 3410 ng/mL
CCc1c(-c2ccccc2)c(-c2ccccc2)nn1-c1ccccc1-c1cccc(OCC(=O)O)c1 |  | Sprague-Dawley rat | intravenous, dose not given | 7460 ng/mL and 7790 ng/mL and 5900 ng/mL
COc1cc2nccc(Oc3ccc(NC(=O)NC4CC4)c(Cl)c3)c2cc1C(N)=O | UPLC-MS/MS | Sprague-Dawley rat, male, plasma | oral, 10 mg/kg, without azole co-treatment | 1020 ng/mL
Cn1c(C(F)(F)F)cc(=O)n(-c2cc(Oc3cccnc3OCC(=O)O)c(Cl)cc2F)c1=O |  | Crl:CD(SD) rats, female, plasma | oral diet, 800 ppm in diet, day 1, 90-day toxicity study | 1130 ng/mL
O=C(O)C1=CO[C@@H](O[C@@H]2O[C@H](CO)[C@@H](O)[C@H](O)[C@H]2O)[C@@H]2C(CO)=CC[C@H]12 |  | rat, plasma | oral, 500 mg/kg Eu + 217 mg/kg Pc extract, dosed as combined Eu and Pc extracts | 431 ± 198 ng/mL
CN(C)C(=O)c1cc2cnc(Nc3ccc(N4CCNCC4)cn3)nc2n1C1CCCC1 | striatal microdialysis | Sprague-Dawley rat male, brain extracellular fluid | intraperitoneal, 100 mg/kg | 0.45 µM
O=C(O)CCSC[C@H]1O[C@@H]2O[C@H]3[C@H](O)[C@@H](O)[C@@H](O[C@H]4[C@H](O)[C@@H](O)[C@@H](O[C@H]5[C@H](O)[C@@H](O)[C@@H](O[C@H]6[C@H](O)[C@@H](O)[C@@H](O[C@H]7[C@H](O)[C@@H](O)[C@@H](O[C@H]8[C@H](O)[C@@H](O)[C@@H](O[C@H]9[C@H](O)[C@@H](O)[C@@H](O[C@H]1[C@H](O)[C@H]2O)O[C@@H]9CSCCC(=O)O)O[C@@H]8CSCCC(=O)O)O[C@@H]7CSCCC(=O)O)O[C@@H]6CSCCC(=O)O)O[C@@H]5CSCCC(=O)O)O[C@@H]4CSCCC(=O)O)O[C@@H]3CSCCC(=O)O |  | Sprague Dawley rat, plasma | ODD, 5 mg/kg, with: rocuronium bromide IV | 2030 ng/mL
C=CC(=O)N1CCC(Oc2cc3c(Nc4ccc(Cl)c(Cl)c4F)ncnc3cc2OC)CC1 |  | Sprague-Dawley rat, male, plasma | oral, 2 mg/kg, with: vehicle pretreatment | 648 ± 137 ng/mL
Cc1cccc(CNC(=O)c2cn(CCNC(=O)c3ccccc3Sc3c([N+](=O)[O-])ncn3C)c3cc4c(cc3c2=O)OC(F)(F)O4)n1 |  | Sprague-Dawley rat, male, whole blood | intramuscular, 3 mg/kg of parent drug | 15.3 ± 4.8 ng/mL
O=c1oc2c(O)c(O)cc3c(=O)oc4c(O)c(O)cc1c4c23 |  | rat, plasma | oral, 500 mg/kg extract, extract | 170 ± 10 ng/mL
C=CC(=O)N1CCC[C@@H](n2nc(-c3ccc(Oc4ccccc4)cc3)c3c(N)ncnc32)C1 |  | male Wistar rat, stomach | oral, 50 mg/kg | 97900 ± 1110 ng/g
CCCCCCCCc1ccc(CCC(N)(CO)CO)cc1 |  | male Sprague-Dawley rat, heart | oral, 1 mg/kg, single dose | 416 ng/g
CC(=O)CC(c1ccccc1)c1c(O)c2ccccc2oc1=O (centres unmarked) |  | Sprague-Dawley rat, male, plasma | oral, 0.2 mg/kg, with: miconazole 30 mg/kg oral, 30 min before | 321 ± 116 ng/mL
CC(C)c1nc(N(C)S(C)(=O)=O)nc(-c2ccc(F)cc2)c1/C=C/[C@@H](O)C[C@@H](O)CC(=O)O |  | Wistar albino rat, both sexes, plasma | oral, 20 mg/kg | 697 ng/mL and 1110 ng/mL and 348 ng/mL and 1150 ng/mL and 1560 ng/mL
CCC[C@H](NC(=O)[C@@H]1CCCN1C(=O)[C@@H](NC(=O)[C@H](N)CC(N)=O)[C@@H](C)CC)C(=O)N[C@@H](CC(C)C)C(=O)N[C@@H](Cc1ccc(O)cc1)C(=O)N[C@H](CO)C(=O)N[C@@H](Cc1ccccc1)C(=O)N[C@@H](C)C(=O)N[C@H](CO)C(N)=O |  | male Sprague-Dawley rat, plasma | subcutaneous, 10 mg/kg single | 711 ng/mL

A few entries again:
Compound | test | system | conditions | Cmax
C=CC(=O)N1CCC([C@@H]2CCNc3c(C(N)=O)c(-c4ccc(Oc5ccccc5)cc4)nn32)CC1 |  | Sprague-Dawley rats, plasma | oral, 16 mg/kg, with: posaconazole 40 mg/kg | 597 ± 195 ng/mL
CCC[C@H](NC(=O)[C@@H]1CCCN1C(=O)[C@@H](NC(=O)[C@H](N)CC(N)=O)[C@@H](C)CC)C(=O)N[C@@H](CC(C)C)C(=O)N[C@@H](Cc1ccc(O)cc1)C(=O)N[C@H](CO)C(=O)N[C@@H](Cc1ccccc1)C(=O)N[C@@H](C)C(=O)N[C@H](CO)C(N)=O |  | male Sprague-Dawley rat, plasma | subcutaneous, 10 mg/kg single | 711 ng/mL
Cc1cccc(CNC(=O)c2cn(CCNC(=O)c3ccccc3S)c3cc4c(cc3c2=O)OC(F)(F)O4)n1 |  | Sprague-Dawley rat, male, whole blood | intramuscular, 10 mg/kg of parent drug | 356 ± 167 ng/mL
